Measurements collected from several papers.
Lines come from different studies, so protocols differ. ± gives the spread as reported.

C1=[N+]2CCCC[N+]3=Cc4ccc5[n]4[Au-]23[n]2c1ccc2-c1nc2ccccc2nc1-5.F[P-](F)(F)(F)(F)F
IC50 (renal cancer cell lines; NCI60 panel mean): 25 µM

N=C(N/N=C/c1ncc[nH]1)N/N=C/c1ncc[nH]1
IC50 (KP-4; cell growth or viability, crystal violet; 72 h): 0.28 µM

CCCCCCCCn1c(-c2cccnc2)nc(-c2ccc(C)cc2)c1-c1ccc(C)cc1
IC50 (L929; cell growth or viability, SRB): 67.2 µM

COc1ccc2cc3[n+](cc2c1OCc1cn(Cc2ccc(OC(F)(F)F)cc2)nn1)CCc1cc2c(cc1-3)OCO2
IC50 (SW1990; cell growth or viability, MTT): 29 µM

O=C1CCC(N2C(=O)c3ccc(N4CCC(C(=O)N5CCC(CCN6CCC(CNC(=O)c7cccc(-c8noc(C(F)(F)F)n8)c7)(c7nc(-c8ccccc8)cs7)CC6)CC5)CC4)cc3C2=O)C(=O)N1 (stereo not drawn)
IC50 (NB-4; cell growth or viability, CCK-8; 5 days): 0.84 µM

COCC12CN(C)C3C4C(OC)C1C3(C(OC)CC2O)C1(O)CC2(O)C(OC)C(O)C4(O)C1C2OC(=O)c1ccccc1 (stereo not drawn)
IC50 (HBE; cell growth or viability, MTT): 21.6 µM

N#C/C(=C\c1cn(-c2ccccc2)nc1-c1ccc(F)cc1)c1nc2ccccc2[nH]1
IC50 (SW1990; cell growth or viability, ATP luminescence; 72 h): 30.9 µM

C=C1C(=O)[C@@]23CC[C@@H]4[C@](C)(COC(C)=O)CCC[C@@]4(COC(C)=O)[C@@H]2[C@@H](O)C[C@@H]1C3
IC50 (HBE; cell growth or viability, MTT): 2.4 µM

COC(=O)[C@H]1[C@H]2C[C@H]3O[C@@]4(CCN3C[C@H]2C[C@@H](OC(=O)c2cc(OC)c(OC)c(OC)c2)[C@@H]1OC)C(=O)Nc1cc(OC)c(-c2ccccc2)cc14
IC50 (RS4-11; cell growth or viability, trypan blue; 72 h): 10.2 µM

N[C@@H](CCC(=O)N[C@@H](CS[Se]Cc1ccc(-c2cc(C(F)(F)F)nn2-c2ccc(S(N)(=O)=O)cc2)cc1)C(=O)NCC(=O)O)C(=O)O
IC50 (WM35 melanoma cells; cell viability, MTS; 48 h, radial stage): 4.1 ± 0.8 µM

Cc1cc(N)c2cc(NC(=O)CC(=O)Nc3ccc4nc(C)cc(N)c4c3)ccc2n1
IC50 (CHO wild type; FGF2 binding to heparan sulfate, inhibitor, flow cytometry; on ice, added: biotinylated FGF2 2.5 nM): 1.2 ± 0.03 µM

O=C(Nc1ccn([C@@H]2O[C@H](CO)[C@@H](O)[C@H](F)[C@H]2O)c(=O)n1)c1ccccc1
IC50 (Molt4/C8; cell growth or viability): > 200 µM

CC1CC(=O)N(CCCCCCN)N=C1c1ccc(NC(=O)N2Cc3ccncc3C2)cc1 (stereo not drawn)
IC50 (MDA-MB-453; cell growth or viability, ATP luminescence): < 3e-05 µM

COc1ccc(-c2cc(-c3nnn(-c4ccc(Br)cc4)c3C)nc(N)c2C#N)cc1
IC50 (BALB/3T3; cell growth or viability, MTT): 15.1 µg/mL

COc1ccc(C[C@H]2COC(=O)[C@@H]2Cc2ccc(OCCCCCCCCCC(=O)NO)c(OC)c2)cc1OC
IC50 (Kasumi 1; cell growth or viability, CCK-8; 48 h): > 5 µM

N=C(N/N=C/c1ccc(F)cc1)N/N=C/c1ccc(F)cc1
IC50 (KP-4; cell growth or viability, crystal violet; 72 h): 9.4 µM

CC(C)c1cccc(C(C)C)c1-n1c2c([n+](-c3c(C(C)C)cccc3C(C)C)[c]1[Au-][Cl])-c1cccc3cccc-2c13
IC50 (2008; cell growth, MTT; 72 h): 16 ± 1 µM

COc1c(O)c(Br)c2oc3c(Br)c(O)c(CC=C(C)C)c(O)c3c(=O)c2c1CC=C(C)C
IC50 (SW480; cell growth or viability; 48 h): 36.6 µM

For quick reference, copied from above:
O=C(Nc1ccn([C@@H]2O[C@H](CO)[C@@H](O)[C@H](F)[C@H]2O)c(=O)n1)c1ccccc1
IC50 (Molt4/C8; cell growth or viability): > 200 µM

N[C@@H](CCC(=O)N[C@@H](CS[Se]Cc1ccc(-c2cc(C(F)(F)F)nn2-c2ccc(S(N)(=O)=O)cc2)cc1)C(=O)NCC(=O)O)C(=O)O
IC50 (WM35 melanoma cells; cell viability, MTS; 48 h, radial stage): 4.1 ± 0.8 µM

CC1CC(=O)N(CCCCCCN)N=C1c1ccc(NC(=O)N2Cc3ccncc3C2)cc1 (stereo not drawn)
IC50 (MDA-MB-453; cell growth or viability, ATP luminescence): < 3e-05 µM
